Published values collected from several papers.
Parts stem from different laboratories: compare values within a part only.

Set 1 — method: RNA Bind-n-Seq; form: RNA; medium: in vitro; tested at: not given; setting: 4-mer, random 30-nt RNA, single round; added: RocA, ADP, phosphate; reference: input library; direction: higher = stronger binding
Target: Eukaryotic initiation factor 4A-I (EIF4A1, Homo sapiens, UniProt P60842, residues 1-406, full length assumed)
Sequence of UniProt P60842 (whole entry, looked up): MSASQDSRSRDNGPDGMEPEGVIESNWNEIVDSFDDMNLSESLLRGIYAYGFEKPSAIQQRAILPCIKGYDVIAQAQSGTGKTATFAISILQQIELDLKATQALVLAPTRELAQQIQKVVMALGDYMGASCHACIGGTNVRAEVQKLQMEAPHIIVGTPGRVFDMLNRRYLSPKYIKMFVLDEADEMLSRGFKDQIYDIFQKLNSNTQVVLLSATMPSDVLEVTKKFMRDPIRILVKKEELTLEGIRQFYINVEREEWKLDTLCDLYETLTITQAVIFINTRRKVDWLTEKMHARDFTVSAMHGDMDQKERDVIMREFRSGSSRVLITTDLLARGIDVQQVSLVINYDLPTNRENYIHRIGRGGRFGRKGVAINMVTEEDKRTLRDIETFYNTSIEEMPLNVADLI
| Sequence | 4-mer enrichment |
| --- | --- |
| AAAC | 0.834 fold |
| GCUU | 0.677 fold |
| AUGG | 1.15 fold |
| AACC | 0.679 fold |
| CGCU | 0.576 fold |
| CAGA | 1.29 fold |
| UGCA | 0.759 fold |
| AAGU | 1.27 fold |
| CAUG | 0.817 fold |
| CACG | 0.695 fold |
| UACC | 0.608 fold |
| GGCA | 0.806 fold |
| CUAU | 0.658 fold |
| AUAA | 1 fold |
| CUAG | 0.788 fold |
| GUCA | 0.795 fold |

Set 2 — method: aptamer microarray, sandwich; form: DNA with 2'F-ANA; medium: in vitro; tested at: 200 nM; added: Cy3 exosite-II aptamer, 400 nM; direction: higher = stronger binding; sequence: GGTTGGTGTGGTTGG
Target: Prothrombin, mature alpha-thrombin (F2, Homo sapiens, UniProt P00734)
Setting: whole 15-mer aptamer, many near background
| Modification | mean fluorescence intensity |
| --- | --- |
| 2'F-ANA at 1 3 4 6 10 11 14 15 | 90.1 a.u. |
| 2'F-ANA at 2 3 5 8 9 10 11 14 15 | 102 a.u. |
| 2'F-ANA at 3 5 6 8 9 11 13 | 86.3 a.u. |
| 2'F-ANA at 1 4 6 7 9 10 11 14 15 | 49.3 a.u. |
| 2'F-ANA at 1 2 7 14 | 57.1 a.u. |
| 2'F-ANA at 5 9 10 11 12 13 15 | 118 a.u. |
| 2'F-ANA at 1 2 3 4 5 6 7 9 10 11 12 14 15 | 51.9 a.u. |
| 2'F-ANA at 1 2 3 6 7 8 9 11 12 15 | 339 a.u. |
| 2'F-ANA at 5 6 7 9 12 14 15 | 49.7 a.u. |
| 2'F-ANA at 3 5 6 7 8 9 11 12 13 | 164 a.u. |
| 2'F-ANA at 1 2 3 4 9 10 12 13 | 63 a.u. |
| 2'F-ANA at 3 4 5 6 8 11 | 85 a.u. |
| 2'F-ANA at 3 4 7 9 10 11 12 13 15 | 271 a.u. |
| 2'F-ANA at 4 5 7 8 9 10 13 | 84.1 a.u. |
| 2'F-ANA at 4 7 8 9 10 11 13 15 | 73.1 a.u. |
| 2'F-ANA at 1 2 3 5 6 7 9 10 12 13 | 52.3 a.u. |
| 2'F-ANA at 1 4 5 6 7 8 12 | 111 a.u. |
| 2'F-ANA at 2 8 9 10 11 12 | 149 a.u. |
| 2'F-ANA at 5 8 11 13 15 | 54 a.u. |
| 2'F-ANA at 1 4 5 6 8 10 11 13 15 | 48.7 a.u. |
| 2'F-ANA at 6 8 11 13 14 15 | 246 a.u. |
| 2'F-ANA at 2 3 4 5 9 11 13 15 | 60.7 a.u. |
| 2'F-ANA at 5 8 9 12 13 14 15 | 48.3 a.u. |

Set 3 — method: protein-binding microarray; form: double-stranded DNA, one strand shown; medium: in vitro; tested at: 250 nM; setting: 60-bp whole probe; added: salmon DNA 0.4 mg/ml; reference: random background probes; direction: higher = stronger binding; all sequences stand within: GCCTAGCAC … GTCTTGATTCGCTTGACGCTGCTG
Target: Interferon regulatory factor 7, full length, phosphomimetic (IRF7, Homo sapiens, UniProt Q92985, residues 1-503, S101K/S471D/S472D/S475D/S476D/S477D/S483D/S484D/S487D)
Sequence of UniProt Q92985 (whole entry, unmodified, looked up): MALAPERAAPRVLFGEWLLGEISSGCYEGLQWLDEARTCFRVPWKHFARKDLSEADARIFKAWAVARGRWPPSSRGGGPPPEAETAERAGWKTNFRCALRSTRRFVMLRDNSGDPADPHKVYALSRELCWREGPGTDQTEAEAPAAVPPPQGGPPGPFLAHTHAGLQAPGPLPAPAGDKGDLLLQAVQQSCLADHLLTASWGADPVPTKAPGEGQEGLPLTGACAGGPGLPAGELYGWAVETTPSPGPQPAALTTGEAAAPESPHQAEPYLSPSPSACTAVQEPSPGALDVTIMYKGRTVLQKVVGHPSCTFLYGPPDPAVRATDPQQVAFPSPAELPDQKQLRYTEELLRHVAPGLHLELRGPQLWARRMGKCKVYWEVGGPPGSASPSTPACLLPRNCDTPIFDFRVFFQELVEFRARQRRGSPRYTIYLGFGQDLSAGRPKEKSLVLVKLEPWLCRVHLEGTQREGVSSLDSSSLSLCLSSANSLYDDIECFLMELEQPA
| Sequence | log fluorescence |
| --- | --- |
| AGAGCCTGGGGATGCAGAGAGTGCTAG | -1.14 z-score |
| GACGGACTGCTTCTGCTGACGTGCTAG | -0.744 z-score |
| GATGGTTCCCTTTTCCTGACGTGCTAG | 3.16 z-score |
| TCATCTCTGCTTGTGTCACTGTGCTAG | 0.592 z-score |
| TTTGCTTTACTGATGGCCCTGTGCTAG | -0.0437 z-score |
| TGAGGTCTCGGACTGGGTTAGTGCTAG | 0.0684 z-score |
| GACGGACTCGGTTTCGGGACGTGCTAG | 6.82 z-score |
| TTAGATATCGAGACTGGATTAGTGCTA | 0.432 z-score |
| TTTCATATATATATGAATATGTGCTAG | 1.22 z-score |
| TTAGGATTGGGGTTTCGGTTAGTGCTA | 5.26 z-score |
| TTAAATCTCAGTCTCGATTAGTGCTAG | 2.02 z-score |
| AATTACATTTCATAGAGTGTGTGCTAG | 0.219 z-score |
| TACGGTATCGACTATCGGGACGTGCTA | 0.0531 z-score |
| GGGGAGCAGGGTGGCCCTGTGTGCTAG | -1.31 z-score |
| GACGATTTCACACTGGAGACGTGCTAG | 0.304 z-score |
| GAGGGACTGCTTTTCCTGACGTGCTAG | 0.367 z-score |
| TTAGAACTGCGGACTGGATTAGTGCTA | -0.326 z-score |
| TTAGGTATCGGGTAGCGGTTAGTGCTA | 0.599 z-score |
| TTAGATCTCAGTTTCCATTAGTGCTAG | 2.62 z-score |
| GACGAACTGAGTTTCTAGACGTGCTAG | 0.547 z-score |
| TTAGGACTGGACTTACGGTTAGTGCTA | -0.432 z-score |
| TTAGGACTGCTTTTCCTTCAGTGCTAG | 1.17 z-score |
| GACGGACTGCTTATCCTCACGTGCTAG | -0.0625 z-score |
| GACGCACTGAGTTTCGAGACGTGCTAG | 3.31 z-score |
| TAGAAACTCGTGTTTTTCTCCGTGCTA | 0.0839 z-score |

Set 4 — method: protein binding microarray; form: double-stranded DNA, one strand shown; medium: in vitro; tested at: not given; reference: not given; direction: higher = stronger binding
Target: Histone acetyltransferase KAT6A, winged helix 2, GST fusion (KAT6A, Homo sapiens, UniProt Q92794, residues 85-181)
Setting: 8-mer, flanks averaged, mean of 2 arrays, mostly near background
Construct (chain): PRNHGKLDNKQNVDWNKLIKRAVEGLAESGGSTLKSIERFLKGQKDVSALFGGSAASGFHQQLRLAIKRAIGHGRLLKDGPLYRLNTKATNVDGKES
| Sequence | E-score |
| --- | --- |
| CAAGCAAG | 0.0861 |
| TACCGGAA | 0.00035 |
| ACTTCTCA | -0.102 |
| ACTTCAGA | -0.0511 |
| CAGGATAC | -0.131 |
| CCCCCCAC | -0.143 |
| CTGATAGA | 0.0887 |
| AAGGAGGG | 0.0495 |
| CGTAGCTA | -0.0609 |
| CCTCAAAG | 0.138 |
| CAGGAACG | 0.00634 |
| ACCCAGGT | -0.209 |
| CAGGCCTA | 0.0637 |
| ACAACGTG | -0.0988 |
| ACGTTACG | -0.126 |
| ACCCTAAT | -0.126 |
| CCACAACG | 0.0819 |
| GACTAGGA | -0.119 |
| CGCATGCA | 0.0678 |
| ATAAGAAC | 0.0296 |
| AAATGGTA | -0.054 |
| AATACGGG | -0.0981 |
| CGTGGTCA | -0.144 |
| GCTGGAGA | 0.0318 |
| GAGGGGAC | 0.084 |

Set 5 — method: RNA Bind-n-Seq; form: RNA; medium: in vitro; tested at: 365 nM; reference: no-protein control; direction: higher = stronger binding
Target: RNA binding protein fox-1 homolog 2, RRM domain, GST-SBP tag (RBFOX2, Homo sapiens, UniProt O43251-10, residues 100-194)
Setting: natural RNA segment, single round, ends assumed
All sequences stand within: GGGAGUUCUACAGUCCGACGAUC … UGGAAUUCUCGGGUGCCAA
Target sequence (chain): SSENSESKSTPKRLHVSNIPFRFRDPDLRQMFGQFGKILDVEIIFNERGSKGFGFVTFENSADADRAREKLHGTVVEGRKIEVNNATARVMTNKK
| Sequence | RBNS enrichment (R) |
| --- | --- |
| CUGGCUUCAGUUCCCUGGCUGCUGCUUUGCCUCCUGAAAGCCACUCUGUAGGACCAAGCACUCGGGGGAGAGGCCUAAGCCAUCCUCUGUUCCAGACUGGACAUCCACUG | 0.423 |
| CCACUGGGAUCACAGCAUUUCGGGGAACAUUGCCACACCAGUCAGAGAGCCCAGAACACCUGGGCAAGUAGGCGGACUGGCAGCCUGGCUCUGGGCCCUCGUCCACCGGG | 0.536 |
| UCCCAUCAGAACCCUGCCUGCCCACCUGCAACUCCCCCCCAACAAUGCCAUUCCCACUUGCCCCAGAGAAGCUACUCGGCCAAACCUAGCCAGGGUCUGUUCUUGUGGAC | 1.76 |
| CCAGCUCAGCUGCUAGGAAGACUUACUUGUCAUGAUUUAUAUAAUAAAAUUAAGGACACUGAAAAUUCUUAUGCUUGAUGAAAAACUUAAGGCUAGCCUAGAAGGGCCAA | 0.325 |
| ACAGACAGGUGGAACUGCCAGUGUAAGGGAAUUCUAAGGUGGACGCACAGAACAGUCUCUCCGUGGGAGGAGACAUUAUGGGGCGUCCACCACCACCCCUCCCUGGCCAU | 0.324 |
| UUCGACUUGAUGAUGUGUGCACACUUCAGGUGGUGGGGACUUGAGCUUUAAAAAAACCUCCACAGCCGAAUCUUCUCCUCCGAGCCACUCCACGUCACGUCCAGCUGGGC | 0.384 |
| AACCACCCCAGUGGGGUCUACCUGGGCCGGGACACACUGUACCCACCAUGUGGGGAGCGGGAGCAGGACUACUGUGCCCUUGGCCUGACGUGUGGGGAGAGAGGAGCAUG | 0.517 |
| CCCCUGGGGCAGGGCAGGGGGCAGGGAGAGACAAGGCUGCUGCUAUUAGAGCCCAUCCUGGAGCCCCACCUCUGAACCACCUCCUACCAGCUGUCCCUCAGGCUGGGGGA | 0.611 |
| CUUCAGAGACCACGCAGCCUUCCUUCGAAGACGCACCUGCCCAGCCCAGCCCAGGGGUGCCGUGGAGGACCACCCUGGCAGAGACAUUGCUGAUCCCUGGCUUGGAGCUC | 0.3 |
| UAGAGAUGUGUGCAGACUUGCUUAUUGUGGUUAGUGUGUAUCAGGAACACACACACAGGUGUUCUGACCAGCUCAGGCUUGCCACAGUGAGCAACUCUGUGGCUAGCAAA | 0.666 |
| GUCUUCUAAUUGUCUUUGUCUAGAUGGAAACUGAACCUUAGCAGAUGAAUAAACCCUGAAAAGGUCAUUGUGUGCUGUGGUCUGUGGUGACUUAGCCCUCCCAGGCAUUG | 0.556 |
| AAUUCAGUAUCCUUAUUUGUUCCAAGACUCUUAACCAAUACUGUGAUAUAAAGUUAGGAUUUGGGAAACGUGUAGUUAACAACUUGGAAACAUGAAGAUAUUAAAAUGGC | 0.434 |

Repeated from above (set 5):
| Sequence | RBNS enrichment (R) |
| --- | --- |
| CUGGCUUCAGUUCCCUGGCUGCUGCUUUGCCUCCUGAAAGCCACUCUGUAGGACCAAGCACUCGGGGGAGAGGCCUAAGCCAUCCUCUGUUCCAGACUGGACAUCCACUG | 0.423 |
| CCACUGGGAUCACAGCAUUUCGGGGAACAUUGCCACACCAGUCAGAGAGCCCAGAACACCUGGGCAAGUAGGCGGACUGGCAGCCUGGCUCUGGGCCCUCGUCCACCGGG | 0.536 |
| UCCCAUCAGAACCCUGCCUGCCCACCUGCAACUCCCCCCCAACAAUGCCAUUCCCACUUGCCCCAGAGAAGCUACUCGGCCAAACCUAGCCAGGGUCUGUUCUUGUGGAC | 1.76 |
| CCAGCUCAGCUGCUAGGAAGACUUACUUGUCAUGAUUUAUAUAAUAAAAUUAAGGACACUGAAAAUUCUUAUGCUUGAUGAAAAACUUAAGGCUAGCCUAGAAGGGCCAA | 0.325 |
| ACAGACAGGUGGAACUGCCAGUGUAAGGGAAUUCUAAGGUGGACGCACAGAACAGUCUCUCCGUGGGAGGAGACAUUAUGGGGCGUCCACCACCACCCCUCCCUGGCCAU | 0.324 |
| UUCGACUUGAUGAUGUGUGCACACUUCAGGUGGUGGGGACUUGAGCUUUAAAAAAACCUCCACAGCCGAAUCUUCUCCUCCGAGCCACUCCACGUCACGUCCAGCUGGGC | 0.384 |
| AACCACCCCAGUGGGGUCUACCUGGGCCGGGACACACUGUACCCACCAUGUGGGGAGCGGGAGCAGGACUACUGUGCCCUUGGCCUGACGUGUGGGGAGAGAGGAGCAUG | 0.517 |
| CCCCUGGGGCAGGGCAGGGGGCAGGGAGAGACAAGGCUGCUGCUAUUAGAGCCCAUCCUGGAGCCCCACCUCUGAACCACCUCCUACCAGCUGUCCCUCAGGCUGGGGGA | 0.611 |
| CUUCAGAGACCACGCAGCCUUCCUUCGAAGACGCACCUGCCCAGCCCAGCCCAGGGGUGCCGUGGAGGACCACCCUGGCAGAGACAUUGCUGAUCCCUGGCUUGGAGCUC | 0.3 |
| UAGAGAUGUGUGCAGACUUGCUUAUUGUGGUUAGUGUGUAUCAGGAACACACACACAGGUGUUCUGACCAGCUCAGGCUUGCCACAGUGAGCAACUCUGUGGCUAGCAAA | 0.666 |
| GUCUUCUAAUUGUCUUUGUCUAGAUGGAAACUGAACCUUAGCAGAUGAAUAAACCCUGAAAAGGUCAUUGUGUGCUGUGGUCUGUGGUGACUUAGCCCUCCCAGGCAUUG | 0.556 |
| AAUUCAGUAUCCUUAUUUGUUCCAAGACUCUUAACCAAUACUGUGAUAUAAAGUUAGGAUUUGGGAAACGUGUAGUUAACAACUUGGAAACAUGAAGAUAUUAAAAUGGC | 0.434 |
